Measured values of several laboratories.
Each line is one published result; not all experiments were run side by side. “And” joins repeats or separate records; there may be more than shown. Numbers after ± are the reported error.
pyrD: Dihydroorotate dehydrogenase (quinone) (pyrD, Acinetobacter baumannii, UniProt B7GZW7)
Kir3.1/Kir3.4: Kir3.1/Kir3.4 (Homo sapiens, UniProt P48544+P48549)
AKR1B1: Aldo-keto reductase family 1 member B1 (AKR1B1, Homo sapiens, UniProt P15121)
PKMYT1: Membrane-associated tyrosine- and threonine-specific cdc2-inhibitory kinase (PKMYT1, Homo sapiens, UniProt Q99640)
T1: ssDNA, aptamer; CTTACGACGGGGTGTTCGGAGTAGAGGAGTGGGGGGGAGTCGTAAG

| Compound | target or system | test | test system | conditions | how to read | quantity | value |
| --- | --- | --- | --- | --- | --- | --- | --- |
| COc1cc(-c2cc(C(C)=O)n3ccccc23)c(OC)cc1Cn1ccnc1 | Histone acetyltransferase KAT2B (KAT2B, Homo sapiens, UniProt Q92831) | – | – | – | – | ΔTm | 1.4 °C |
| [Cl-].[K+] | GUK1 (Homo sapiens, UniProt Q16774) | enzyme activity, NADH-coupled | – | 15 mM | – | reaction velocity | 0.0673 µM/s and 0.0525 µM/s and 0.0587 µM/s |
| Cc1cc(Nc2ccc(C(C)(C)C)c(F)c2)n2ncnc2n1 | pyrD | enzyme activity, inhibitor, colorimetric HTS, measured: DCIP reduction | – | 3 µM | direction not given | robust Z-score | 23.4 |
| Cc1nn(C2CCS(=O)(=O)C2)c(C)c1NC(=O)COc1cc(Cl)ccc1Cl (centres unmarked) | Kir3.1/Kir3.4 | activator, thallium flux | HEK293 | concentration not given | – | activity | inactive |
| CC(F)(F)c1nc2nc(CO)cc(Nc3ccc(S(F)(F)(F)(F)F)cc3)n2n1 | pyrD | enzyme activity, inhibitor, colorimetric HTS, measured: DCIP reduction | – | 3 µM | direction not given | robust Z-score | 14 |
| CCCC[C@H](NC(=O)[C@H](C)c1c(C)[nH]c2ccc(O)cc12)c1ncc(-c2cc3ccccc3nc2OC)[nH]1 | Melanin-concentrating hormone receptor 1 (MCHR1, Homo sapiens, UniProt Q99705) | – | – | – | – | Hill coefficient | 1.1 |
| CN1CCN(C(=O)c2ccc3cc(CCNc4ccnc5ccc(C#N)cc45)ccc3c2)CC1 | Cyclin-dependent kinase 8, with cyclin C (CDK8, Homo sapiens, UniProt P49336) | TR-FRET kinetics | – | – | relative to: compound over Senexin B | residence time ratio | 2 to 3 fold |
| Nc1ncnc2c1ncn2[C@@H]1O[C@H](COP(=O)(O)OP(=O)(O)OP(=O)(O)O)[C@@H](O)[C@H]1O | T1, ssDNA, aptamer | ITC | – | – | – | Kd | 0.788 µM |
| O=C(CN1C(=O)S/C(=C\c2ccc(Cl)cc2)C1=O)c1ccc([N+](=O)[O-])cc1 | AKR1B1 | enzyme activity, inhibitor | – | – | – | Hill slope | -0.608 |
| Cc1cc(Nc2ccc(S(F)(F)(F)(F)F)cc2)n2nc(C(C)(F)F)nc2n1 | pyrD | enzyme activity, inhibitor, colorimetric HTS, measured: DCIP reduction | – | 3 µM | direction not given | robust Z-score | 22.2 |
| C[C@]12C[C@H](O)[C@H]3[C@@H](CCC4=CC(=O)CC[C@@]43C)[C@@H]1CC[C@@H]2C(=O)CO | Cytochrome P450 11B1, mitochondrial (CYP11B1, Homo sapiens, UniProt P15538, V320A) | substrate | – | 100 µM, 37 °C, phospholipid vesicles | – | 18-hydroxylation product formation rate | 1.4 ± 0.1 min⁻¹ |
| NCCCCC(=O)O | Sodium- and chloride-dependent taurine transporter (SLC6A6, Homo sapiens, UniProt P31641, Y138A) | binding, microscale thermophoresis | – | 7.81 µM, room temperature, with: 50 nM labelled protein | higher = more binding | normalised MST signal | 0.00773 |
| CN(C)C(=O)C(CCN1CCC(O)(c2ccc(Cl)cc2)CC1)(c1ccccc1)c1ccccc1 | Calcium-activated potassium channel subunit alpha-1, with LRRC26 γ1 subunit (KCNMA1, Homo sapiens, UniProt Q12791) | BK current, inside-out patch clamp | excised membrane patch | 10 µM, γ1 subunit coexpressed, with: nominally 0 Ca2+ cytosolic | – | effective gating valence | 1.48 elementary charges |
| Oc1ccc(/C=C/c2cc(O)cc(O)c2)cc1 | O-methyltransferase (Sorghum bicolor, UniProt A0A1B6PFV1) | – | – | concentration not given, with: MTA+ | – | ΔH of binding | -15.1 ± 0.044 kcal/mol |
| Nc1nc(=O)n([C@H]2C[C@H](O)[C@@H](CO)O2)cc1CN(CC[C@H](N)C(=O)O)C[C@H]1O[C@@H](n2cnc3c(N)ncnc32)[C@H](O)[C@@H]1O | DNA (cytosine-5)-methyltransferase 1 (DNMT1, Homo sapiens, UniProt P26358) | radiometric [3H]-SAM | – | concentration not given, with: SAM, poly(dI-dC) | – | inhibition type | inhibited |
| C[C@H](N)C(=O)Nc1ccc2ccccc2c1 | rat aminopeptidase III | substrate | – | MW 110 kDa | – | kcat | 5.17 s⁻¹ |
| Cc1cc(NC(=O)C2CCc3cc(F)ccc3O2)n(C2CCS(=O)(=O)C2)n1 (centres unmarked) | Kir3.1/Kir3.4 | thallium flux, activator | HEK293 | – | relative to: standard compound | Emax | 23% |
| O=C(c1ccc(C(=O)N2CCC(N3CCCC3)CC2)c(Nc2ccccc2)c1)N1CCC(N2CCCC2)CC1 | Lethal(3)malignant brain tumor-like protein 3, MBT domains (Homo sapiens, UniProt Q96JM7) | FRAP | human cells | 0.05 µM | – | diffusion coefficient | 0.156 µm2/s |
| CSCC[C@H](N)C(=O)Nc1ccc2ccccc2c1 | rat aminopeptidase III | substrate | – | – | – | Km | 5 µM |
| O=C(COP(=O)(O)O)[C@@H](O)[C@H](O)[C@H](O)COP(=O)(O)O | 26S proteasome non-ATPase regulatory subunit 6 (Homo sapiens, UniProt Q15008) | thermal proteome profiling, measured: PSMD6 | HepG2 cell lysate | concentration not given, 57 over 37 °C, mean | relative to: compound over control | thermal stability ratio | 0.553 |
| O=C(O)CC[C@H](NC(=O)N[C@@H](CCCCNC(=O)[C@H](Cc1ccc2ccccc2c1)NC(=O)CCCCCNC(=O)CN1CCN(CC(=O)O)CCN(CC(=O)O)CCN(CC(=O)O)CC1)C(=O)O)C(=O)O [gallium-68 labelled] | – | gamma counting | mouse, PC-3 xenograft, spleen | intravenous, 3.7 MBq, 2 h | – | tissue uptake | 1.63 ± 0.12 %ID/g |

| Compound | target or system | test | test system | conditions | how to read | quantity | value |
| --- | --- | --- | --- | --- | --- | --- | --- |
| O=C1S/C(=C\c2ccc([N+](=O)[O-])cc2)C(=O)N1Cc1nc2ccccc2s1 | AKR1B1 | enzyme activity, inhibitor | – | – | – | Hill slope | -0.595 |
| N#Cc1ccc2[nH]cc(CCCCN3CCN(c4ccc5oc(C(N)=O)cc5c4)CC3)c2c1 | Sodium-dependent serotonin transporter (SLC6A4, Homo sapiens, UniProt P31645, E493N) | [3H]5-HT uptake, inhibitor | COS-7 | – | – | Hill coefficient | 1.2 ± 0.17 |
| CC(C)C[C@H](N)C(=O)O | snf (Aquifex aeolicus, UniProt O67854, L400C) | scintillation proximity | – | 10 nM protein | – | Bmax | 5150 ± 75 cpm/pmol LeuT |
| CCc1cc(NC(=O)COc2cccc(Cl)c2Cl)n(C2CCC(F)(F)CC2)n1 | Kir3.1/Kir3.4 | thallium flux, activator | HEK293 | – | relative to: standard compound | Emax | 62% |
| COc1cc(N2CCN(C)CC2)ccc1Nc1nc(N)n(C(=S)NCc2c(Cl)cccc2Cl)n1 | Protein kinase C eta type (PRKCH, Homo sapiens, UniProt P24723) | enzyme activity | – | 10 µM | relative to: control | remaining activity | 16% |
| C[C@@H](c1ccc(-n2cnc3c(N)ncnc32)cc1)N1CCc2nn(C)c(Cc3ccccc3)c2C1=O | PKMYT1 | KINOMEscan | – | 0.1 µM | relative to: DMSO control | remaining binding | 76% |
| O=C(O)/C=C/CC(=O)O | – | binding, MIDAS equilibrium dialysis LC-MS | A2AR-BRIL thermostabilized | concentration not given | relative to: no-protein control | log2 fold change | -0.0534 |
| N#Cc1ccc2c(-c3ccncc3)c(-c3ccc(F)cc3)nn2c1 | Cyclin-dependent kinase 1 (CDC28, Candida albicans, UniProt P43063) | kinase binding, competitor, MIB/MS competition, measured: CDC28 | Candida albicans cell lysate | 100 nM | relative to: DMSO | log2 fold change | -0.084 |
| CCN1CCC[C@H]1CNC(=O)c1c(O)c(Cl)cc(Cl)c1OC | Prokineticin receptor 2 (PROKR2, Homo sapiens, UniProt Q8NFJ6) | β-arrestin recruitment, TANGO luminescence, measured: PK2 | – | concentration not given | relative to: basal luminescence | log2 fold change | -0.45 |
| CCn1c(-c2nc3cc(C(=O)N4CCC[C@@H](N)C4)cc(OC)c3n2C)cc2cccnc21 | Protein-arginine deiminase type-4 (PADI4, Homo sapiens, UniProt Q9UM07) | mixed inhibitor | – | with: BAEE substrate, 10 mM CaCl2 | – | Ki' | 147 ± 49 µM |
| NCCS(=O)(=O)O | Sodium- and chloride-dependent taurine transporter (SLC6A6, Homo sapiens, UniProt P31641, S402A) | binding, microscale thermophoresis | – | 488 nM, room temperature, with: 50 nM labelled protein | higher = more binding | normalised MST signal | -0.00928 |
| Nc1ccn([C@H]2C[C@H](O)[C@@H](COP(=O)(O)OP(=O)(O)OP(=O)(O)O)O2)c(=O)n1 | DNA polymerase beta (POLB, Homo sapiens, UniProt P06746) | nucleotide incorporation, substrate, steady-state kinetics | – | with: undamaged primer-template | – | Km | 0.14 µM |
| CCc1nc2nc(C)cc(Nc3ccc(S(F)(F)(F)(F)F)cc3)n2n1 | pyrD | enzyme activity, inhibitor, colorimetric HTS, measured: DCIP reduction | – | 3 µM | direction not given | robust Z-score | 25.3 |
| CC1=NN(c2ccc(C)cc2)C(=O)C1=NNc1ccc(S(N)(=O)=O)cc1 | bovine α-glucosidase | enzyme activity, inhibitor, glucose oxidase | – | 10 µg/mL, with: maltose | – | inhibition | 27.39 ± 0.000879% |
| C[S+](CC[C@H](N)C(=O)[O-])C[C@H]1O[C@@H](n2cnc3c(N)ncnc32)[C@H](O)[C@@H]1O (some centres unmarked) | Histone-lysine N-methyltransferase 2C (KMT2C, Homo sapiens, UniProt Q8NEZ4) | substrate, enzyme-coupled methylation | – | with: H3 peptide 50 µM | – | apparent Km | 6.7 ± 0.8 µM |
| O=C(CCCCCCC(=O)Nc1ccccc1)NO | Histone deacetylase 8 (HDAC8, Homo sapiens, UniProt Q9BY41) | ITC | triethanolamine buffer | concentration not given, pH 7.5 | – | binding stoichiometry | 0.8 |
| Nc1nc2c(ncn2[C@@H]2O[C@H](COP(=O)(O)O)[C@@H](O)[C@H]2O)c(=O)[nH]1 | GUK1, part: ADP-bound (Homo sapiens, UniProt Q16774) | binding, ITC | – | with: ADP 0.5 mM | – | -TΔS | 3.87 kcal/mol and 2.82 kcal/mol and 5.35 kcal/mol |
| COc1cc(O)c2c(c1)oc(=O)c1c3cc(O)c(O)cc3oc21 | Alpha-glucosidase MAL12 (MAL12, Saccharomyces cerevisiae S288c, UniProt P53341) | fluorescence quenching | – | concentration not given, 304 K | – | number of binding sites | 1.1 |
| NC(=O)c1ccc[n+]([C@@H]2O[C@H](COP(=O)([O-])O)[C@@H](O)[C@H]2O)c1 | – | binding, MIDAS equilibrium dialysis LC-MS | A2AR-BRIL thermostabilized | concentration not given | relative to: no-protein control | log2 fold change | -0.167 |
| C=CC(=O)N1CCC(COCC(=O)N2CCN(c3nc(-c4cnc(N)nc4C(F)F)nc(N4CCOC[C@@H]4C)n3)CC2)CC1 | PKMYT1 | KINOMEscan | – | 1 µM | relative to: DMSO control | remaining binding | 92% |
